Experimental data pooled from the literature.
Numbered parts are unrelated; each lists some results of a single study. Values joined by “and” are separate records of one study, mostly repeats; a detail may differ.
Chain of UniProt P28221 (whole entry, looked up): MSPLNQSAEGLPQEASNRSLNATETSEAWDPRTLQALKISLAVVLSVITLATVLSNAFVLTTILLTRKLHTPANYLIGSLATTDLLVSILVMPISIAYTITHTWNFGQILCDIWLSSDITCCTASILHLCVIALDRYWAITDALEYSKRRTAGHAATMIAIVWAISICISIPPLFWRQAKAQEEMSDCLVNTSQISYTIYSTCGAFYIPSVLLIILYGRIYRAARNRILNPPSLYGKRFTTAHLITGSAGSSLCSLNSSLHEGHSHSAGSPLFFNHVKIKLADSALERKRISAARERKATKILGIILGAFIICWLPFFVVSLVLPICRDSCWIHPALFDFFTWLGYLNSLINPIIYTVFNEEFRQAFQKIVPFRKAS
Chain of UniProt P62344 (whole entry, looked up): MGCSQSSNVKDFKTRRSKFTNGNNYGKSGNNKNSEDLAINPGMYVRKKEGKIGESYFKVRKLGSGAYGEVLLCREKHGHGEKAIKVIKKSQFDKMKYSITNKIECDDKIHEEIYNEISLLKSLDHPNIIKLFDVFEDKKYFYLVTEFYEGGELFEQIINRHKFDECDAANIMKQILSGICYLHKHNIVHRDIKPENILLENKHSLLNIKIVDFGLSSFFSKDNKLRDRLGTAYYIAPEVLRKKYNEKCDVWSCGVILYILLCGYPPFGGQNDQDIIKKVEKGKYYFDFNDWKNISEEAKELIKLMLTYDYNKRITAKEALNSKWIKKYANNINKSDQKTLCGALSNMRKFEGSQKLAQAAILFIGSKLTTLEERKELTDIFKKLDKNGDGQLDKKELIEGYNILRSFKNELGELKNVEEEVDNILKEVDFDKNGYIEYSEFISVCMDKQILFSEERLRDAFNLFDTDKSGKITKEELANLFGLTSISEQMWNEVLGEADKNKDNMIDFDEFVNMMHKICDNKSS

Set 1
Cell line: HaCaT
Concentration: 100 µM
Time: 18 h
| Structure (SMILES) | viability [%] |
| --- | --- |
| NCC(O)c1ccc(O)cc1 (centres unmarked) | 107 |
| C[C@@H](CO)NC(=O)[C@@H]1C=C2c3cccc4[nH]cc(c34)C[C@H]2N(C)C1 | 92.4 |
| CN(C(=O)/C=C/c1ccoc1)[C@@H]1CC[C@@]2(O)[C@H]3Cc4ccc(O)c5c4[C@@]2(CCN3CC2CC2)[C@H]1O5 | 96.5 |
| COc1ccc(CN(C(=O)[C@@H](N)Cc2c(C)cc(C(N)=O)cc2C)[C@@H](C)c2nc(-c3ccccc3)c[nH]2)cc1C(=O)O | 120 |
| C/C=C(\C)C(=O)N[C@@H](c1ccccc1)[C@@H](O)C(=O)O[C@H]1C[C@@]2(O)[C@@H](OC(=O)c3ccccc3)[C@@H]3[C@]4(OC(C)=O)CO[C@@H]4C[C@H](O)[C@@]3(C)C(=O)[C@H](OC(C)=O)C(=C1C)C2(C)C | 74.8 |

Mixed results
pknB: Serine/threonine-protein kinase PknB (pknB, Mycobacterium tuberculosis, UniProt P9WI81)
Chain of UniProt P9WI81 (whole entry, looked up): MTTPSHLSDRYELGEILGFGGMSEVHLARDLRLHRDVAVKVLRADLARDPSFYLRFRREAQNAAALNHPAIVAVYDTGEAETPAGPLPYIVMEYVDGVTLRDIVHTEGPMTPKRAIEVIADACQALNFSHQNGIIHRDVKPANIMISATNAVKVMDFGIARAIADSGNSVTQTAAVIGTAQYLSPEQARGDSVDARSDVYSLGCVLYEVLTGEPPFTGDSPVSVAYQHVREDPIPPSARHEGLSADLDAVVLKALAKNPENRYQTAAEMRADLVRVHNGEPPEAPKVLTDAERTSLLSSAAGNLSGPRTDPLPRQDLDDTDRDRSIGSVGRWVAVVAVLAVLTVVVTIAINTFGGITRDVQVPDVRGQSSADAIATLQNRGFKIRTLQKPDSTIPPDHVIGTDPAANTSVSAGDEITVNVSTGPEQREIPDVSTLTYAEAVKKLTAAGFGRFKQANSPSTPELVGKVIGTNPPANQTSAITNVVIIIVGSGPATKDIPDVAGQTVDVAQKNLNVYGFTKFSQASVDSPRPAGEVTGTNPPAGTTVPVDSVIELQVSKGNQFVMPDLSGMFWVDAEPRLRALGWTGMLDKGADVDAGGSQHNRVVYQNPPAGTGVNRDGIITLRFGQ
| Structure (SMILES) | target or system | test | test system | conditions | scale | quantity | value |
| --- | --- | --- | --- | --- | --- | --- | --- |
| CN1CCN(c2cnc3c(C4CCN(C(=O)c5ccc(OC(F)(F)F)cc5N)CC4)ncnc3c2)CC1 | Calcium-dependent protein kinase 1 (CDPK1, Plasmodium falciparum, UniProt P62344) | cell-free assay, competition with immobilised ligand |  | 1 µM |  | remaining binding | 100% |
| CNC(=O)c1ccc(-c2cnn3ccc(C(=O)N(C)c4ccc(Cl)c(C(=O)OC)c4)cc23)cc1 | Cryptosporidium parvum |  | neonatal calves | dose not given, day 2 post-treatment | direction not given | fecal consistency score | 1 and 3 and 2 |
| C[C@H](NC(=O)c1cnc2n1[C@](C)(Cc1ccc(C#N)cc1)C(=O)N2c1cc(Cl)c(F)c(Cl)c1)C(=O)NC1(c2ccccn2)CC1 | pknB | cell-free assay, competition with immobilised ligand |  | 1 µM |  | remaining binding | 100% |
| Cc1cc(C)c(C#N)c(N2C[C@@H]3CCN(C)[C@@H]3C2)n1 |  |  | mouse, microsomes or S9 | 2 µM, 0.5 h |  | remaining compound | 19.3% |
| CNC(=N)NCCC[C@H](NC(=O)[C@H](CC(C)C)NC(=O)NNC(=O)[C@H](Cc1ccccc1)NC(=O)[C@H](CO)NC(=O)[C@H](CC(N)=O)NC(=O)[C@@H](Cc1cccnc1)NC(=O)[C@H](N)Cc1ccc(O)cc1)C(=O)NCC(N)=O | 5-hydroxytryptamine receptor 1D (HTR1D, Homo sapiens, UniProt P28221) | ligand displacement, radioligand |  | 10 µM |  | inhibition | 12.4% |
| CO[C@H]1CC[C@H](CNc2ccc(S(=O)(=O)NC(=O)c3ccc(N4CCN(CC5=C(c6ccc(Cl)cc6)CC(C)(C)CC5)CC4)cc3Oc3cnc4[nH]ccc4c3)cc2[N+](=O)[O-])CC1 | pknB | cell-free assay, competition with immobilised ligand |  | 1 µM |  | remaining binding | 86% |

Some of these lines once more (mixed results):
| Structure (SMILES) | target or system | test | test system | conditions | scale | quantity | value |
| --- | --- | --- | --- | --- | --- | --- | --- |
| CN1CCN(c2cnc3c(C4CCN(C(=O)c5ccc(OC(F)(F)F)cc5N)CC4)ncnc3c2)CC1 | Calcium-dependent protein kinase 1 (CDPK1, Plasmodium falciparum, UniProt P62344) | cell-free assay, competition with immobilised ligand |  | 1 µM |  | remaining binding | 100% |
